# Experimental data gathered from unrelated publications.
# Protocols differ between the studies behind these lines. Values joined by “and” are separate records of one study, mostly repeats; a detail may differ. Numbers after ± are the reported error.
Compound,cell line,test,system,conditions,scale,quantity,value
CC[C@H](C)[C@H](NC(=O)[C@H](C)NC(=O)CNC(=O)[C@H](Cc1ccccc1)NC(=O)[C@H](CC(N)=O)NC(=O)[C@H](CC(N)=O)NC(=O)[C@H](CO)NC(=O)[C@H](CO)NC(=O)[C@H](Cc1c[nH]cn1)NC(=O)[C@@H](NC(=O)[C@H](CC(C)C)NC(=O)[C@H](Cc1ccccc1)NC(=O)[C@H](CC(N)=O)NC(=O)[C@H](C)NC(=O)[C@H](CC(C)C)NC(=O)[C@H](CCCNC(=N)N)NC(=O)[C@H](CCC(N)=O)NC(=O)[C@@H](NC(=O)[C@H](C)NC(=O)[C@@H]1CSSC[C@H](NC(=O)[C@@H](N)CCCCN)C(=O)N[C@@H](CC(N)=O)C(=O)N[C@@H]([C@@H](C)O)C(=O)N[C@@H](C)C(=O)N[C@@H]([C@@H](C)O)C(=O)N1)[C@@H](C)O)C(C)C)C(=O)N[C@@H](CC(C)C)C(=O)N[C@@H](CO)C(=O)N[C@@H](CO)C(=O)N[C@H](C(=O)N[C@@H](CC(N)=O)C(=O)N[C@H](C(=O)NCC(=O)N[C@@H](CO)C(=O)N[C@@H](CC(N)=O)C(=O)N[C@H](C(=O)N[C@@H](Cc1ccc(O)cc1)C(N)=O)[C@@H](C)O)C(C)C)[C@@H](C)O,RIN-m5F,ELISA,Golgi and mitochondria enriched fraction,24 h,reference: total,internalized fraction,2.6% and ~3%
CC(C)[C@H](NC(=O)[C@H](CCCNC(=N)N)NC(=O)[C@@H]1CCCN1C(=O)[C@@H](NC(=O)[C@H](C)NC(=O)[C@H](Cc1ccc(O)cc1)NC(=O)[C@H](CCC(N)=O)NC(=O)[C@H](CCCCN)NC(=O)[C@H](CCCNC(=N)N)NC(=O)[C@@H]1CCCN1C(=O)[C@H](CCC(=O)O)NC(=O)[C@@H](NC(=O)[C@H](C)N)[C@@H](C)O)[C@@H](C)O)C(=O)N[C@@H](Cc1ccccc1)C(=O)N[C@@H](Cc1c[nH]c2ccccc12)C(=O)N[C@H](C(=O)N[C@@H](CC(=O)O)C(=O)N[C@@H](C)C(=O)N1CCC[C@H]1C(=O)NCC(=O)NCCOCCOCCOCCOCCOCCOCCOCCOCCOCCOCCOCCOCCC(=O)N[C@@H](CS)C(N)=O)[C@@H](C)O,BEAS-2B bronchial epithelial,"cell binding, phage binding, refers to: output/input phage",,"10 min, 37 °C",reference: control phage,selectivity ratio,1.3 ± 1.2
COc1ccccc1-c1ccncc1C(=O)Nc1nnc(OCc2ccc(Cl)cc2)s1,RPE-1 TP53-/- BRCA1-/-,,,"1 µM, average of 2 runs",reference: untreated,colony survival,50.5%
O=C(O)c1ccc(-c2nc(-c3ccccc3Cl)c3sccn23)cc1,K562,"erythroid differentiation, flow cytometry",,"0.1 mM, 48 h, unit not given",reference: untreated,CD71 fluorescence intensity,0.86 and 0.78 and 0.87
O=C(C[Se]C(=O)c1ccccc1)Nc1cccc(C(F)(F)F)c1,NCI60 colon subpanel,NCI60 five-dose screen,,,,mean TGI,16.3 µM
CC(C)(C)C(=O)OCOP(=O)(OCOC(=O)C(C)(C)C)C1CCCN(O)C1=O (centres unmarked),MDA-MB-468,,,,,GI50,0.977 µM
CC(C)C[C@H](NC(=O)[C@H](CCC(=O)O)NC(=O)[C@@H](N)Cc1ccccc1)C(=O)N[C@@H](CCC(=O)O)C(=O)N[C@@H](CCCNC(=N)N)C(=O)N[C@@H](CCCNC(=N)N)C(=O)N[C@@H](Cc1ccccc1)C(=O)N[C@@H](CCCCN)C(=O)N[C@@H](CCC(N)=O)C(=O)N[C@@H](CCC(N)=O)C(=O)O,HCT-116,Transwell,,concentration not given,reference: vehicle,cell migration and invasion,no effect
CC(C)Cc1ccc(C(C)C(=O)[Se]CC(=O)Nc2cccc(C(F)(F)F)c2)cc1 (centres unmarked),NCI60 CNS subpanel,NCI60 five-dose screen,,,,CC50,6.7 µM

# For quick reference, copied from above:
Compound,cell line,test,system,conditions,scale,quantity,value
O=C(C[Se]C(=O)c1ccccc1)Nc1cccc(C(F)(F)F)c1,NCI60 colon subpanel,NCI60 five-dose screen,,,,mean TGI,16.3 µM
